Results gathered from unrelated publications.
Parts stem from different laboratories: compare values within a part only. Positions count from the first letter of the parent shown.

Series 1 — target: CCNB3, cyclin fold, Cln2 fusion (human); method: yeast growth competition, sequencing; matrix: yeast; notes: weak parent motif; reference: not given; reading: higher = stronger binding; endpoint: normalised enrichment score
Starting sequence: MASTL docking peptide (human); PMIAKNLMCELDE
M8Y: -0.0546
D12W: -0.154
I3E: -0.188
C9F: 0.0332
I3W: -0.175
M8L: 0.205
L7E: 0.28
M2T: 0.0125
D12L: 0.0203
L11F: -0.268
K5V: 0.14
M2Q: 0.117
K5Q: -0.361
K5N: 0.225
M8N: -0.108
D12T: 0.145
L7G: -0.299
I3Q: -0.00784
L7N: -0.234
C9V: -0.122
C9K: -0.249
M8D: -0.226
K5H: -0.244
M8I: -0.144

Series 2 — method: protein-binding microarray; form: double-stranded DNA, one strand shown; matrix: in vitro; tested at: 250 nM; notes: 60-bp whole probe; together with: salmon DNA 0.4 mg/ml; reference: random background probes; reading: higher = stronger binding; endpoint: log fluorescence; all sequences stand within: GCCTAGCAC … GTCTTGATTCGCTTGACGCTGCTG
Target: Interferon regulatory factor 7, full length, phosphomimetic (IRF7, Homo sapiens, UniProt Q92985, residues 1-503, S101K/S471D/S472D/S475D/S476D/S477D/S483D/S484D/S487D)
Construct (chain): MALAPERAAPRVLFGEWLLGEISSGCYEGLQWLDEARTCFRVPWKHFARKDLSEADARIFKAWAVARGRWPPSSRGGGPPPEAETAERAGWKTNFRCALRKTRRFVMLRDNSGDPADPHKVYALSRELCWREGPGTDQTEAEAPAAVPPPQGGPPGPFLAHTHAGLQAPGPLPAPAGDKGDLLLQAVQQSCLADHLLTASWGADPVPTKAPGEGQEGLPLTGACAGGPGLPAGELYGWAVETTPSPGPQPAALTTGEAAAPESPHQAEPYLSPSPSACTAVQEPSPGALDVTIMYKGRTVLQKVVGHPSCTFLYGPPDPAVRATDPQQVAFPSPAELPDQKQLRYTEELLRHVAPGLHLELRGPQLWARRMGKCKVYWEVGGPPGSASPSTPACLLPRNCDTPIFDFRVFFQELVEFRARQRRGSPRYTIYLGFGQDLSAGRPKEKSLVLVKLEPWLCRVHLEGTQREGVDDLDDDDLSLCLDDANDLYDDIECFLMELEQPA
TTGGAACTGAGTCTCGATTAGTGCTAG: 1.19 z-score
GACGGACTGGATTATCGGGACGTGCTA: -0.3 z-score
CTCGTGGTCCTGCCCTGCCTGTGCTAG: -0.349 z-score
TCACATTTCAATTAGAAACTGTGCTAG: 1.83 z-score
GACGGACTGGACTTTAGGGACGTGCTA: -0.76 z-score
TTAGAAATGGGGTTTCGATTAGTGCTA: 6.66 z-score
GACGGACTGGACGATCGGGACGTGCTA: -0.476 z-score
CAAGGCAAGAAACAAACAACGTGCTAG: 0.0909 z-score
GACGGTTTCCCACTGCTGACGTGCTAG: 1.69 z-score
TTTGCTTTCTTTTTGCACTCGTGCTAG: 1.37 z-score
GACGATATCGACTATCGGGACGTGCTA: -0.125 z-score
TCAGTTATTAAATTTTCAACTGTGCTA: 0.319 z-score
TAAGATCTCAGTATCGATTAGTGCTAG: 1 z-score
GACGAACTGAGTCTCGAGGCGTGCTAG: -0.0817 z-score
GACGGTATCGACACTAGGGACGTGCTA: -0.243 z-score
CTGGGCAGGATGAGTTCCAGGTGCTAG: 1.1 z-score
GTAAACCATCCAAATGTTATGTGCTAG: -0.0589 z-score
CTGGAGGTTGGGCAAGGCCCGTGCTAG: -1.13 z-score
TCCCTTTTCATGCTCTTATAGTGCTAG: 2.37 z-score
GACGAACTGGGTATCGAGACGTGCTAG: -0.183 z-score
GACGGTCTCGGACTGTGGACGTGCTAG: -0.168 z-score
TTAGGACTGAGTTTCGATTAGTGCTAG: 7.8 z-score
CCAGACTTGATTTTGGTCTTGTGCTAG: -0.151 z-score
TATAGAGTAGTTTTTCAACCAGTGCTA: -0.588 z-score
GACGGTATCGCTATCGGGACGTGCTAG: 0.357 z-score

Series 3 — method: RNA Bind-n-Seq; form: RNA; matrix: in vitro; tested at: 100 nM; reference: input RNA pool; reading: higher = stronger binding; endpoint: bound/input enrichment
Target: RING finger protein unkempt homolog, zinc fingers 1-6, SBP tag (UNK, Homo sapiens, UniProt Q9C0B0, residues 30-357)
Sequence of UniProt Q9C0B0 (30-357, looked up): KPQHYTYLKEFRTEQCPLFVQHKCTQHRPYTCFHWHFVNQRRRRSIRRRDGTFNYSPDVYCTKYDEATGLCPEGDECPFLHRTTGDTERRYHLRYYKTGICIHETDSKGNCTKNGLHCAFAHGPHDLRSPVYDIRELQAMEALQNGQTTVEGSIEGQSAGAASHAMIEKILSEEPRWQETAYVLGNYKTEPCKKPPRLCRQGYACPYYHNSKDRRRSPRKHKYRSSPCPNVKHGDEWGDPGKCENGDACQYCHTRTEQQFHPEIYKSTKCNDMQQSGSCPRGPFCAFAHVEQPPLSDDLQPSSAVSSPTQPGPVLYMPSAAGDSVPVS
Notes: RNA with constant flanks, vertebrate orthologous sites, ends assumed
All sequences stand within: GGGAGUUCUACAGUCCGACGAUC … CAACAGAGGAUUGAGCAUCA
AGCAACCCAUGGAUUCAGGACUGGUUUCACAAAUAUACCAAGUAGAUACGGAAGUAACAACAGAAUUGGACAACCAAGACCAUGAUGUGCUCUAACUUAUUUGAUAUUGACUCUUUGGCU: 0.541 ratio
CCGCUAAACCCCAUUUCUUCUGUUUCAUAGUGCAGAAGUGUCCUUUCUCAGUUACAUUAUUAGUGGACUUGUUUUAAUUUUAGGGAAACUUCCAGUACAGAUACUGUGAGCUUACAUGGA: 1.13 ratio
AUCCGAUUGCUGGAUGAAGACUGUUCCAAGUUAUAACCAAACAAAUAGCUCCAUGGACUUUAGAAAUUAUAUGAUGAGAGAUGAGAAUUUGGAACCACUGCCCCAAAACUGGGAAAUGGC: 0.8 ratio
UAUUAGUGUCCUACCAGCAUAUUAACCUCUCGUCUGUGCACAGCUUCCAACGUUACCGUCUAGUUAGAUUUUUAUUUAAAAUAUGAAAAACUGCUUUUCCCAAGACGUUUUUUAAAAACA: 1.4 ratio
UCCUCAACCUGUUCUAGCUUGUGAUCCUUCAAAGUUGGGUCAUACAUUAGUGCUAGAUACUAGAAAUUUUCACUUUUCCAUUGAUCAGAGAGUCAGACAUAUAAAAACGAAAAUAAAAGA: 1.18 ratio
GCACUAAAGGAGGUAGCAUCUUUAUUUUUGUAUCAAAGAUAAAGCUUAUUUUGAGAUUAUUAGGAUUUUUACACAACUCUGAAAUCUGUUGCUUUUGUAAACAGGUUGUUUGAUCUUAGG: 0.794 ratio
CUGUUGUUAAGCACUGUGUUCCAGACCAUGUCUGACUUUAGUGUAACCUAGGAGAUUUUAUAGUUUUAUUUUAAUGAAAAACCCUGAUUGGUGCAGAACAGUGGGAAGAGCAGUGUCUUU: 3.1 ratio
UAAUACUUAAGCCAACAACAGUUCUAAAAUGUUAUUUAUUUGUGUCUGUAAGUUUGUACAUAGUAUUACCAACCUCAUAUUGUUGAUUUUUUUUUUAUCAGUUUUGAGUUUUGUUUUGUU: 0.44 ratio
CUCAUUUCCAGGUUGGCUCUAGUGGAAAAGUCAUAGGAAUUGACCACAUUAAAGAACUAGUAGAUGACUCAAUAAAUAAUGUCAGAAAGGACGAUCCAAUGCUUUUGUCUUCAGGGAGAG: 1.19 ratio
UGGCCUUGAGGUGUGGGGCACUGCUGGCUGCUUAGCGUUGUUAAAUUUGUGACCUUGACAUCAUAGAUAGGCUUGUGGUGUUUUUUUAAUUUAAAGAUAUUAAGACUUAAUUCACUAAAA: 0.724 ratio
UUCGUUGUACUGCAAAAUCAUCCUCGCUUUAAGCUAGCCGCCGUGAUUACUAGUCUGUGCUAACAGAAUCAUUUACUACUACCUUUUAAUUAUGUGCUUUGUCUGAUACCUGAAACCAGU: 1.22 ratio

Series 4 — method: RNA Bind-n-Seq; form: RNA; matrix: in vitro; tested at: 365 nM; reference: no-protein control; reading: higher = stronger binding; endpoint: RBNS enrichment (R)
Target: RNA binding protein fox-1 homolog 2, RRM domain, GST-SBP tag (RBFOX2, Homo sapiens, UniProt O43251-10, residues 100-194)
Notes: natural RNA segment, single round, ends assumed
All sequences stand within: GGGAGUUCUACAGUCCGACGAUC … UGGAAUUCUCGGGUGCCAA
Target sequence (chain): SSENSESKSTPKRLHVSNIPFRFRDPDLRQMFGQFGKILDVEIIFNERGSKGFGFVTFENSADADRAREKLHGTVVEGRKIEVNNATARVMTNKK
UGCUUCAUCACCACUUCCAUCUUGCAUCACCUUAUAACUGUUCUGUCUUGUUCUCUCCCAGCAAUUUAUUUUAAAACAAGGGCUAGCUUCAAGCAUGACUGUUAAUGGCU: 1.64
CCCCAAAUUUGUCUAAGCACUGGCCAGUCUGUUGUGGGCAUUGUUUUCUACAACCAAAUUCUGGGUUUUUUUCUUCUUUCUUUAAACAUAGAGGUACCACCACAAGGGAU: 1.08
UACAAUCAUUUAUAAUGAAUCAAUGUUCCAGUUAGCUUUAAAAGGUAUACGGUGCUAAUUAGUAAAAUAUUGAAGGCAAUAUUUUACUGCUAGCUUGCAAAGUUAUGAGA: 0.486
UGCGGUCACCAUGGGUGAGCACUGUCUGUGCACGUGCCAGGGAGGAGAUGGCUGGGACCACUGCACAGGAGGGCGCAGCCUGGCGUCGCCAUGAAAGUUGUCUCUGUGCC: 0.881
ACCCACCAGGUUCUGUGUCCUAUGGGCUACACCUGGCUCCAGCAAGAAUGCCUGCCAUGGGCACUUCUCUGUACCCGGGCUCCAGUGCCAGGCCAGCCUCUCACUCCCAA: 0.385
UAACUAGAGGUAAUAAUUGGUAUUCAGGUAACUCAUUUACAGUCAUAAUGUGUUGUGAAAAUUUAAUCUUAAAAAUUAAAUUUUUAAACUAUGUGGGUCUGUGAAUUUCU: 0.453
GUGCUUCCUUGCUCAGUGCAAAACUGAUGAUUCUACUUGCUGUAGAUGAAUGGUUAACACGAGCUAGUUAAACAGUGCCAUUGUUUUGCCAGUGAAGCCUCCAACCCUAA: 0.206
UUAACCAAAAGAUACAGUGAUAUAGCCAUGUACUGUGGGUGGGACAGAUACAGUCUCCUUGGCCUAUAAUGAAACCACUAGGACUUUAUACAGUUUUCCUUAAUUUGUUG: 0.473
GGACAAAGCCUCCUGAUUCUACCUGGAUCACUCCUGUUAUGUGACAGUUAUGUGGUGGGUCCCUGCUAAAAUCUCCCUGACCACCUGAGGGCAUAAAGCAUGUGUCUUAU: 13.9
CUAUCACUGUUAAGGGGGGGGGAAAGUGAGGUUCGAGGAUGACGUAGGUAACUCUCCCCUCCCAAGUCCAUGUUCCAAGUGGCUAUGUAAAGCAAGAUGAUACAGAAAGC: 0.774
CAGUCCUCCUACCUCCCGAGUCUGCGGGCAGCUGCUGUCCCAGCAUCUGCUGGUCAUUUCGCCCUGACAGUCCCAACCAGAACCCCUGGGACUUGAAUCCAGAGACGUCC: 0.317
AUAUGUGGCCUCCGGGAGACACCUGCUUGGAAGGAGGCAGUGAUGGAGAUAGAGCCCCACUCUGAGUCUGGGCUCAGAGUGCCCUGACUGCUCUCCCCCACCCCAUCCCC: 0.62

Series 5 — method: DHFR PCA, deep sequencing; matrix: yeast; together with: (+)-ABA 0 µM; reference: wild-type fitted maximum; reading: higher = stronger binding; endpoint: relative binding score
Target: ABI1, truncated, D143A, DHFR fusion (Arabidopsis thaliana)
Notes: methotrexate growth selection, single substitutions
Starting sequence: PYL1, truncated, DHFR fusion (Arabidopsis thaliana); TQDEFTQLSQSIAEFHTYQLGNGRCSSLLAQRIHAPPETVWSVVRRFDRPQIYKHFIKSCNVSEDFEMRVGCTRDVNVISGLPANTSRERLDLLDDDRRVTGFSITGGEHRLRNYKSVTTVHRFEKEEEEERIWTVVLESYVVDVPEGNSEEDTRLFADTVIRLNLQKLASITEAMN
Q31H: 2.76%
V118K: -1.47%
L164H: 12.5%
P83E: 16.6%
V137A: 3.1%
F56C: -1.56%
T160E: 11.6%
I172L: 12.2%
G102H: -7.67%
T106Q: 9.68%
K126D: 50.3%
I33K: -4.06%
A158W: 1.71%
Q2C: 28.6%
T6S: 39.2%
V143G: -4.72%
N77A: 42.1%
L91P: 2.32%
H122T: 1.48%
A13L: 19.5%
Q167G: 4.32%
F5C: 4.36%
L82V: 14.5%
V161Q: 38.8%
S87R: 62.1%

A few entries again (series 2):
TAAGATCTCAGTATCGATTAGTGCTAG: 1 z-score
TTAGGACTGAGTTTCGATTAGTGCTAG: 7.8 z-score
CTGGAGGTTGGGCAAGGCCCGTGCTAG: -1.13 z-score
TATAGAGTAGTTTTTCAACCAGTGCTA: -0.588 z-score
CCAGACTTGATTTTGGTCTTGTGCTAG: -0.151 z-score
GACGAACTGGGTATCGAGACGTGCTAG: -0.183 z-score
GACGGACTGGATTATCGGGACGTGCTA: -0.3 z-score
TCAGTTATTAAATTTTCAACTGTGCTA: 0.319 z-score
